Results collected from several papers.
Lines come from different studies, so protocols differ. ± gives the spread as reported.

| Compound | assay | system | conditions | AUC(0-inf) |
| --- | --- | --- | --- | --- |
| CCN1CCN(Cc2ccc(NC(=O)c3ccc(C)c(NC(=O)c4cncc(-c5cccs5)c4)c3)cc2C(F)(F)F)CC1 |  | C57BL/6 mice, epithelial lining fluid | intraperitoneal, 30 mg/kg | 9750 ng·h/mL |
| CC(C)[C@@H](CS(=O)(=O)C(C)C)N1C(=O)[C@@](C)(CC(=O)O)C[C@H](c2cccc(Cl)c2)[C@H]1c1ccc(Cl)cc1 |  | FVB mice Abcg2 knockout, brain | intravenous, 20 mg/kg | 155 ± 27.9 ng·h/mL |
| Nc1ncn([C@H]2C[C@H](O)[C@@H](CO)O2)c(=O)n1 | UHPLC-MS/MS | C57BL/6 mice, female, plasma | oral, 0.4 mg/kg | 200 ng·h/mL |
| COc1cccc2c(N3CCC(CCP(=O)(O)O)CC3)ncnc12 |  | female C57BL/6 mice, cerebrospinal fluid | subcutaneous, 50 mg/kg | 1980 ng·h/mL |
| CCOc1ccc(N(C)S(=O)(=O)c2cc(Cl)sc2C(=O)Nc2cc(Cl)cc(C(=O)O)c2)cc1OC |  | male C57BL/6 mice, brain | intraperitoneal, 10 mg/kg | 25.1 ng·h/g |
| Cc1cc(NC(=O)c2cccc3cc(-c4cccc5[nH]nc(N)c45)ccc23)ccc1F |  | CD-1 mice, brain | oral, 10 mg/kg | 5490 ng·h/g |
| CC1(C)CC[C@]2(C(=O)O)CC[C@]3(C)C(=CC[C@@H]4[C@@]5(C)C[C@@H](O)[C@H](OC(=O)/C=C/c6ccc(O)cc6)C(C)(C)[C@@H]5CC[C@]43C)[C@@H]2C1 (relative stereo) |  | C57BL/6 mice, plasma | intraperitoneal, 85 µmol/kg single dose | 92.7 µM·h |
| c1ccc(-c2nc(N3CCC(c4ccccn4)C3)c3ccccc3n2)nc1 (centres unmarked) |  | female Balb/c mice, plasma | intravenous, 2 mg/kg, mean, with: ABT 2 h prior | 7110 ng·h/mL |

Excerpt of the above:
| Compound | assay | system | conditions | AUC(0-inf) |
| --- | --- | --- | --- | --- |
| Nc1ncn([C@H]2C[C@H](O)[C@@H](CO)O2)c(=O)n1 | UHPLC-MS/MS | C57BL/6 mice, female, plasma | oral, 0.4 mg/kg | 200 ng·h/mL |
